Measurements from different studies.
Each numbered part is a random draw from the data of one study; scales do not carry over between parts. Substitutions count along the parent as printed.

Set 1 — target: CREB3L1, bZIP domain (human); technique: DHFR protein complementation; medium: yeast; baseline: wild-type JUN-FOS pair; reading: higher = stronger binding
Notes: single substitutions, most at no-binding floor
Starting sequence: JUN, bZIP domain (human); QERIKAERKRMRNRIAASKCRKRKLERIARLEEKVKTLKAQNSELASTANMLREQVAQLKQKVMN; partner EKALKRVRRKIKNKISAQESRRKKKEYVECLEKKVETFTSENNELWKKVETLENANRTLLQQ
Variant | binding fitness [natural log]
Q55A | -1.49
S43I | -1.32
V35Y | -1.72
M51E | -1.44
L45P | -1.53
R30N | -1.53
A46F | -1.45
I28V | -1.45
A46Y | -1.24
T37V | -1.41
E33I | -1.42
A49Q | -1.48
L38A | -1.48
T48A | -1.33
E44F | -1.49
E54L | -1.41

Set 2 — target: CCNB3, cyclin fold, Cln2 fusion (human); technique: yeast growth competition, sequencing; medium: yeast; notes: weak parent motif; baseline: not given; reading: higher = stronger binding
Starting sequence: BRCA2 docking peptide (human); CKKRRALDFLSRL
Variant | normalised enrichment score
CKARRALDFLSRL [K3A] | 0.874
CKKRRALDALSRL [F9A] | 0.269
CKKRRALDFLSRA [L13A] | 0.362
CAKRRALDFLSRL [K2A] | 0.367
CKKRAAADFLSRL [R5A L7A] | 0.356
CKKRKALDFLSRL [R5K] | 0.276
CKKRKALDLLSRL [R5K F9L] | 0.971
CKKRRALDFASRL [L10A] | 0.506
CKKRRALDFLARL [S11A] | 0.542

Set 3 — technique: protein binding microarray; form: double-stranded DNA, one strand shown; medium: in vitro; tested at: not given; baseline: not given; reading: higher = stronger binding
Target: Histone acetyltransferase KAT6A, winged helix 1, GST fusion (KAT6A, Homo sapiens, UniProt Q92794, residues 1-85)
Notes: 8-mer, flanks averaged, mean of 2 arrays, mostly near background
Residues (chain): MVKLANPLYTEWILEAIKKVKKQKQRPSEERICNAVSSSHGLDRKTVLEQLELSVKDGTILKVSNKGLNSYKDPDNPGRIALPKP
Strand | E-score
TCGTATAA | -0.104
CAAACTAA | -0.0783
CCGCAGGA | 0.033
ATCGACAT | -0.0648
GTAAGGAC | 0.0917
ATCGGAGG | -0.0281
AACCGCCA | 0.112
ATGTACTA | -0.0591
AGCACAAC | -0.182
CTGTGGAA | -0.152
AATGGTCC | 0.0343
GACACCTA | -0.0523
CATCAAGC | -0.102
GATGTACA | -0.0821
ACTGTCCT | -0.167
AGACTTAA | -0.144
CTGACAGA | -0.0792
ATTAGAGC | -0.0124
GGCCCATA | -0.0339
AGCGCCTA | 0.191
GTGCCATA | -0.0152
AAGCGTGA | 0.102
CTCCATGA | -0.184
CGCTATAC | 0.197

Set 4 — technique: RNA Bind-n-Seq; form: RNA; medium: in vitro; tested at: 1 µM; notes: whole 134-nt RNA, ends assumed; with: 150 mM KCl; baseline: input library; reading: higher = stronger binding
Target: Ras GTPase-activating protein-binding protein 1, RRM domain (G3BP1, Homo sapiens, UniProt Q13283)
Chain of UniProt Q13283 (whole entry, looked up): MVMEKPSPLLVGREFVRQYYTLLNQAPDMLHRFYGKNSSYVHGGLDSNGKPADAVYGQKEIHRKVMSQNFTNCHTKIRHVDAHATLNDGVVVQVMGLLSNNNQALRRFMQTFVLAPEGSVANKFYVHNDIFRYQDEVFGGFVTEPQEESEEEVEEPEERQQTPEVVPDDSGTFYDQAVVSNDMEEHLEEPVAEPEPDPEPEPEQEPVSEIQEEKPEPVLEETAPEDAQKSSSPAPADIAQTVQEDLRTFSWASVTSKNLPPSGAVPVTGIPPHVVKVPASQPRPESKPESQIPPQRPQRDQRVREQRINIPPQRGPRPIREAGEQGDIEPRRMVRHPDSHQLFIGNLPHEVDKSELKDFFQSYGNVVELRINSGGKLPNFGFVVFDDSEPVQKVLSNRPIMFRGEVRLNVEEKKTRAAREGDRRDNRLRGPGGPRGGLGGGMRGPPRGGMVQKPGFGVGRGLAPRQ
Shared flanks, not repeated: GGGAGUUCUACAGUCCGACGAUC … UGGAAUUCUCGGGUGUCAAGG
Strand | log2 enrichment
UCAAGUCCUGUGCUACACAUCGUAUGUACCGAAUCGGGUGGGAAAAAGGGAGGGAAAGUAUUAUGUUACGCCGUUCGGAUCUGCACUUCC | 0.727
UAAUUUAGAUCUUAAAGAAAAAGUGGAGCCUGAGGUUCUCAGCACUGAUACCCAAACUUCCCCAGAGCCAGGCACAAGGAUGAACAUUCU | -0.197
CCUGUGCUACACAUCGUAUGUACCGAAUCGGUUUUUUUGGGGUUUUUUUGGUUUUUUUGGAAAGUAUUAUGUUACGCCGUUCGGAUCUGC | -0.191
ACCAUGCAGGUGGGCAUCUUUGGGAAGUGGGGCAAGGGGGGGAUAGGGAGGGGGGUAACACUUUGGGAACAGGUGGUCCCAGGUCGUUUA | 0.99
AGUCCUGUGCUACACAUCGUAUGUACCGAAUCGGGAAAAGGGAAAAGGGGAAAAGGGGAAAGUAUUAUGUUACGCCGUUCGGAUCUGCAC | 0.481
AAGUCCUGUGCUACACAUCGUAUGUACCGAAUCGGGUGGGAAAAAAAGGGAAAGGGAAAGUAUUAUGUUACGCCGUUCGGAUCUGCACUU | 0.75
ACCAUGCAGGUGGGCGUCUUUGGGAAGUGGGGCAAGGGGGGGAUAGGGAGGGGGGUAACACUUUGGGAACAGGUGGUCCCAGGUCGUUUC | -0.518
CUGUGCUACACAUCGUAUGUACCGAAUCGGGGCCCCCCCGGGGCCCCCCCGGCCCCCCCGGGAAAGUAUUAUGUUACGCCGUUCGGAUCU | -0.615
UCCUGUGCUACACAUCGUAUGUACCGAAUCGGGUUUUUUUGGGAAAAAAAGGGUUUGGGAAAGUAUUAUGUUACGCCGUUCGGAUCUGCA | -0.316
CUCAAGUCCUGUGCUACACAUCGUAUGUACCGAAUCGGUUGGGGUUGGGGUUGGAAAGUAUUAUGUUACGCCGUUCGGAUCUGCACUUCC | -0.23
GCAGGAAGUAAAAACAAAUGGAAAUGCUUCGGACAGUGGCAGGGGUGGGGGUUGCUAAGGAAAGGGUGGGAUGGGAGUGGGUAAAGAGUU | 0.97
GUCCUGUGCUACACAUCGUAUGUACCGAAUCGGGUUUUUGGGGUUUUUGGUUUUUGGGGAAAGUAUUAUGUUACGCCGUUCGGAUCUGCA | -0.114
GCAGGAAGUAAAAACAAAUAAAAAUGCUUCGGAUAGUGGCAGGGGUGGGGGUUGCUAAGGAAAGGGUGGGAUGGGAGUGGGUAAAGAGUU | 0.867
CACAGACAACACGCACCCACACAGACACAGAGGGAAGGGGUUGGGAUGGGGACAAGGUGCACAGCAGGGCGGGGUAGGACCCCAGCCCCU | 0.63

Set 5 — technique: RNA Bind-n-Seq; form: RNA; medium: in vitro; tested at: 365 nM; baseline: no-protein control; reading: higher = stronger binding
Target: RNA binding protein fox-1 homolog 2, RRM domain, GST-SBP tag (RBFOX2, Homo sapiens, UniProt O43251-10, residues 100-194)
Notes: natural RNA segment, single round, ends assumed
Shared flanks, not repeated: GGGAGUUCUACAGUCCGACGAUC … UGGAAUUCUCGGGUGCCAA
Construct (chain): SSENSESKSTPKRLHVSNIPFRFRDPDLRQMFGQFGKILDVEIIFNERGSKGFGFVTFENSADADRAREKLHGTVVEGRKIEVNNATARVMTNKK
Strand | RBNS enrichment (R)
CUCAAAGGACCAAAUUUCUUUGGCCAAAGAAGUUGCUUCUAUGUUAGUCCCAUACCCUGAAGUAAUAUGUACCAUGGCUCCCACCUACCUGUUUAUGCUCUCCCUGCCCC | 0.805
GGCCAAUAAGGUAUCUUGACUUUAUCAAAGUAGAAGAGAGGGUCACUUCGGAGUCAAAUCAUACACUAGGCCUUUGAUGCUUUAAUUCUUCUUCAGUUCAUUAAAAGUAA | 0.763
GAAAACUAUUUAAUGAAAGCACGAUAUUUAUCUUUGGUAAAUGACUUUAGAGCAGUUAAAGACAUUGCUUAAAAAACUCAGAAUCAGAAAAAACACUGAAUUAUUUAAGA | 5.27
ACCUCACUACUACAUCUGUGAUGACUGGUUGUUCAAACACAAUGGAGUGUGUAAGGUAUAUGUUUUAUAAUUCAUAACCAUAGCCUCGAUCAUCAAGAAAUACUUUCGAA | 0.328
CAUCAGUCACCUUUGGGGUUGCCAUGUACAAUGAGAUUUAUAAUCAUGAUACUCUUCGGUGGUAGUUUCAAAAGACACUACUAAUACGCAGGAAGCGUUCCAGCUAUUUA | 0.296
UGGUGGACUCCUCCCGCUGGAGGCGGGGACCCUAACAACCUUCAAGACCAGUGAUGGGCCGGCUCCGAGGCUCCGGGCGGGAAUGGGACCUGCGCUCCAGGGUGGUCUCG | 0.377
UAUUGAAAUGGUUUCCUAGUGGUAGUAGGAAGACUGAAUAAGAACAACCUAUUUUCUGGUUGUUGUCAGCUUGCCCCUGUCUAUACAGCUUGUUACGUGAAUUCAACAAG | 0.456
GUGGGUAAAAGGGGCUUCAAAAAACGGAUAGAACAGGAUUUUCUAGGAGUUACACAUACAUUUUAUCCUGUCAUACCUCGAGAUAAAGUGGCAUGUUAGUGAGGAGUUCU | 0.801
CAUGUUCCGUAAUGUGCCCACAGCAAACCCCACGGAGCCGGGAAUCAGACGGGUUCCGGGGGCCUCAGAGGUGAUCCGGGAGUCGAGCAGCACAACAGGGAUGGUCGUCG | 0.366
CCUCAAAACAGAGAGAUGCUCUCUAGUGUUUAGAAAAGUAUGGUAGAACAAGUUGCUUAUAAUUGAGAGUGAGAGCAUGCCUUAAAUGUCAUGAUGGUAUGUGAAUAUGU | 1.7
GGGCCUCCUAGAAACUUUAUUGCAGAGAUGACUGGAGGCCAUUGGUGUUUCCAGGAGAGCUAGCAUGUUUCUACAAGUGUAGGACUGGAUUGUGGAUCUGCUAUCUAACA | 1.28
CUGCCUCGUAAGCGUUUCCUCCCUGAAUUGAAGUACAUAGGCUAAUAUAUUAUUUUGUAGUAUCUCAGACUUUGCAUAAAUACUAUUAUUUUUGUAUGGAAUUUUUUACA | 0.734

Single results of other studies
Substance | target | assay | test system | conditions | scale | endpoint | value
PhoQ, residues 284 288 289 292 302 303 SACGEM | PhoP, residues 12 14 15 18 19 SYFRT (Escherichia coli, UniProt P23836) | Sort-seq, refers to: YFP reporter | E. coli | PhoQ-PhoP variant library, with: 10 µM Mg2+ | baseline: high Mg2+ state, higher = stronger signaling | fold induction | 1.84

Excerpt of the above (set 5):
Strand | RBNS enrichment (R)
ACCUCACUACUACAUCUGUGAUGACUGGUUGUUCAAACACAAUGGAGUGUGUAAGGUAUAUGUUUUAUAAUUCAUAACCAUAGCCUCGAUCAUCAAGAAAUACUUUCGAA | 0.328
CAUCAGUCACCUUUGGGGUUGCCAUGUACAAUGAGAUUUAUAAUCAUGAUACUCUUCGGUGGUAGUUUCAAAAGACACUACUAAUACGCAGGAAGCGUUCCAGCUAUUUA | 0.296
UGGUGGACUCCUCCCGCUGGAGGCGGGGACCCUAACAACCUUCAAGACCAGUGAUGGGCCGGCUCCGAGGCUCCGGGCGGGAAUGGGACCUGCGCUCCAGGGUGGUCUCG | 0.377
UAUUGAAAUGGUUUCCUAGUGGUAGUAGGAAGACUGAAUAAGAACAACCUAUUUUCUGGUUGUUGUCAGCUUGCCCCUGUCUAUACAGCUUGUUACGUGAAUUCAACAAG | 0.456
GUGGGUAAAAGGGGCUUCAAAAAACGGAUAGAACAGGAUUUUCUAGGAGUUACACAUACAUUUUAUCCUGUCAUACCUCGAGAUAAAGUGGCAUGUUAGUGAGGAGUUCU | 0.801
CAUGUUCCGUAAUGUGCCCACAGCAAACCCCACGGAGCCGGGAAUCAGACGGGUUCCGGGGGCCUCAGAGGUGAUCCGGGAGUCGAGCAGCACAACAGGGAUGGUCGUCG | 0.366
CCUCAAAACAGAGAGAUGCUCUCUAGUGUUUAGAAAAGUAUGGUAGAACAAGUUGCUUAUAAUUGAGAGUGAGAGCAUGCCUUAAAUGUCAUGAUGGUAUGUGAAUAUGU | 1.7
GGGCCUCCUAGAAACUUUAUUGCAGAGAUGACUGGAGGCCAUUGGUGUUUCCAGGAGAGCUAGCAUGUUUCUACAAGUGUAGGACUGGAUUGUGGAUCUGCUAUCUAACA | 1.28
